Published values pooled from the literature.
Each numbered part is a random draw from the data of one study; scales do not carry over between parts.
UniProt P52564, sequence (whole entry, looked up): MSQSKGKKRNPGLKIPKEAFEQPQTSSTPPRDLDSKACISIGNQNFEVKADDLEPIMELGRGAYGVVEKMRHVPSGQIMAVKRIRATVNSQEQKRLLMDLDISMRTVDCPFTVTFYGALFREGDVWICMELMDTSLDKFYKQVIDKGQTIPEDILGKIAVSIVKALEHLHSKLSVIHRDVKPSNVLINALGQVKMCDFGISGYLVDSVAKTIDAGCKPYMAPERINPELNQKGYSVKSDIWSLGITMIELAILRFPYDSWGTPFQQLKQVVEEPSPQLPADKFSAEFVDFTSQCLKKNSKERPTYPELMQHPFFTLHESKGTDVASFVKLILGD
UniProt P48729, sequence (whole entry, looked up): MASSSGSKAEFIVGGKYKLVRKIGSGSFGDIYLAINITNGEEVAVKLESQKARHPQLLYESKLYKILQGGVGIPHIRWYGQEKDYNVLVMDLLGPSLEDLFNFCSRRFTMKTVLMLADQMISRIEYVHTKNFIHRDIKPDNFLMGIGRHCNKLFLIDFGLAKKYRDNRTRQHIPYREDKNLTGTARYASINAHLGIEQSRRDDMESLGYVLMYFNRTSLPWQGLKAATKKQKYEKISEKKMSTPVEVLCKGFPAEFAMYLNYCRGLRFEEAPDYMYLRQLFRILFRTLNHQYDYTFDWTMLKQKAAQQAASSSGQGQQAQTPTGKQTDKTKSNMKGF
UniProt P41743, sequence (whole entry, looked up): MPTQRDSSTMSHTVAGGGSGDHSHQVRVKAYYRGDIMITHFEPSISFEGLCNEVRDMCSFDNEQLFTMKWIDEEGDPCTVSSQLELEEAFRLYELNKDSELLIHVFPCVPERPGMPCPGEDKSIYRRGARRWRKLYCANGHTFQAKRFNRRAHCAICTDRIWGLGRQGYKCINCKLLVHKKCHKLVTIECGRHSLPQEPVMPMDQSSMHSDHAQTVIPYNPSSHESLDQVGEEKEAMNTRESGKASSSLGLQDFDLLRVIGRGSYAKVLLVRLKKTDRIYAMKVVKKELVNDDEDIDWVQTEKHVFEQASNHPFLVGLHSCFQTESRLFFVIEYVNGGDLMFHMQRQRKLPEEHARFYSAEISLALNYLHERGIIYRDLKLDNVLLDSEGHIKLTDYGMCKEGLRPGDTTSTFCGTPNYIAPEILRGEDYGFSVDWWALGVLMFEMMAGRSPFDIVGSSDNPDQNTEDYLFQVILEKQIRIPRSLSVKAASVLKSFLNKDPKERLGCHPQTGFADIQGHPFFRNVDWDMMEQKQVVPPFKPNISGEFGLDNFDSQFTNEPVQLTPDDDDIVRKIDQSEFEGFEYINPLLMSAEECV
UniProt P10721, sequence (whole entry, looked up): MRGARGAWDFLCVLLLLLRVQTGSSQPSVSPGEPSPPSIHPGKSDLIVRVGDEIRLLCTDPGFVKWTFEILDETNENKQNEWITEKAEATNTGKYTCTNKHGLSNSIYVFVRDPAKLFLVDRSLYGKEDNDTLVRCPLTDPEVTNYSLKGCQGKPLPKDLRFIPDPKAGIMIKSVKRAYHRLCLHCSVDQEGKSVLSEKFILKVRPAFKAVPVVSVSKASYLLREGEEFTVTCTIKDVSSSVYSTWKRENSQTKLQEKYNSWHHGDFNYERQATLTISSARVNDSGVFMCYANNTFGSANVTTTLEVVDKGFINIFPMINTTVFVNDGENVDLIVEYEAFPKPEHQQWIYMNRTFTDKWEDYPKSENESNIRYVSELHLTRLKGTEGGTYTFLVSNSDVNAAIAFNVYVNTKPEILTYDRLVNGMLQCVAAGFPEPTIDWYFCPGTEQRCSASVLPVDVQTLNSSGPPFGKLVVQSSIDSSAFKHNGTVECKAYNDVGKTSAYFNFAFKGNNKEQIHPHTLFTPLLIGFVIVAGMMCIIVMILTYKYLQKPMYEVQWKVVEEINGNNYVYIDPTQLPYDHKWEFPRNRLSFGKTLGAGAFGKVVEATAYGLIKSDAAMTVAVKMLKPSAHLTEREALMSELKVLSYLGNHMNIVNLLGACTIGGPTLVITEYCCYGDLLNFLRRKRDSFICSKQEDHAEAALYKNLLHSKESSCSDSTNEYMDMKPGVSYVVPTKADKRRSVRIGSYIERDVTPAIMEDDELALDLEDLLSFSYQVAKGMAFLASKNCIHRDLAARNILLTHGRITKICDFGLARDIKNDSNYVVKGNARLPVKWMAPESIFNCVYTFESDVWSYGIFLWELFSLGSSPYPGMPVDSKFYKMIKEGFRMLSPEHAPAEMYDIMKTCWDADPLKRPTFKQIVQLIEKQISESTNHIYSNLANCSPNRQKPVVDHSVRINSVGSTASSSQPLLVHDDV
UniProt O14757, sequence (whole entry, looked up): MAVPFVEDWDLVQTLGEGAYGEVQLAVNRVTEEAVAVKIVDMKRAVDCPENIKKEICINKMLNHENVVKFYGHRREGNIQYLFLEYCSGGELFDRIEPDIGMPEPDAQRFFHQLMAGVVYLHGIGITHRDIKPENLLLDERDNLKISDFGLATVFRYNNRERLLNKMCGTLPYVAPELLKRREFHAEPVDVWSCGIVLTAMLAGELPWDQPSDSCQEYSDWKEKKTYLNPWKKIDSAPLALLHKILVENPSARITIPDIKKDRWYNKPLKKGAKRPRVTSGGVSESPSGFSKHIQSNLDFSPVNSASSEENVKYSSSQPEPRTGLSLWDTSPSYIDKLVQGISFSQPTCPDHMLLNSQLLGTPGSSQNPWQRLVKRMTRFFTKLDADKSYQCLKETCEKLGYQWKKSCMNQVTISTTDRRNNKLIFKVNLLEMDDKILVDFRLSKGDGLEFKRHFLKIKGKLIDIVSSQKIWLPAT
UniProt Q06187, sequence (whole entry, looked up): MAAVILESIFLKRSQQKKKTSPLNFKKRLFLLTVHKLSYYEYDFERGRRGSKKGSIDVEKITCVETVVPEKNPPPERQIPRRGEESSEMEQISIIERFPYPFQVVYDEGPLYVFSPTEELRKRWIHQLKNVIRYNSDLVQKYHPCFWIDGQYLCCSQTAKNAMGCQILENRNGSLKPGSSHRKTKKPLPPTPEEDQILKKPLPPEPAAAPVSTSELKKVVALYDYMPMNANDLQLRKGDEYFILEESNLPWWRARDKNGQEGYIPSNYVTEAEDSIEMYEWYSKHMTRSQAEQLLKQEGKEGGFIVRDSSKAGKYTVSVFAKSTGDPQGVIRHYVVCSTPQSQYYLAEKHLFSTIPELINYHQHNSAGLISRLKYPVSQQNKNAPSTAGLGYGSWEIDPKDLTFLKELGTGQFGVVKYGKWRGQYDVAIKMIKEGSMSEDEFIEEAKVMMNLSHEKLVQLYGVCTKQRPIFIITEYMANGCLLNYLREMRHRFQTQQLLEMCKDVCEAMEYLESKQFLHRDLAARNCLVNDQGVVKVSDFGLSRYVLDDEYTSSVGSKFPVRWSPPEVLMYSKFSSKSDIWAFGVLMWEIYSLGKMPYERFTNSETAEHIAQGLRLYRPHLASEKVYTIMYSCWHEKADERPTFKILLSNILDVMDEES
UniProt Q13131, sequence (whole entry, looked up): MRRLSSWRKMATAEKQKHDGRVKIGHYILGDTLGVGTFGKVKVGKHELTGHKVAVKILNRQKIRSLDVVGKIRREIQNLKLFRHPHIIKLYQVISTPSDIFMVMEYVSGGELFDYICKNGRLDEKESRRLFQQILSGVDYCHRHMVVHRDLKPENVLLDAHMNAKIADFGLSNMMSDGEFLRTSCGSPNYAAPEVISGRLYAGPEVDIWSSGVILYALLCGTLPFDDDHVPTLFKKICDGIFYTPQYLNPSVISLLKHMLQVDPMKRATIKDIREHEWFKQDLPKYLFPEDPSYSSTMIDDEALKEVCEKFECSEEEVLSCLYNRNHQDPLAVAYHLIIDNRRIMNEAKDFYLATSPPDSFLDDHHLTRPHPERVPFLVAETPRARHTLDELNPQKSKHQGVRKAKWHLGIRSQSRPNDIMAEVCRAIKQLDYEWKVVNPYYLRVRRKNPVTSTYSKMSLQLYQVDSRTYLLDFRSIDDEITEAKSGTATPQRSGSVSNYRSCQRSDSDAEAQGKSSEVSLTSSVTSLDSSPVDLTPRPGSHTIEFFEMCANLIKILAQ

Block 1
Compound: CC(=O)N[C@@H](Cc1c[nH]c2ccccc12)C(=O)N[C@@H](CCC(=O)C=[N+]=[N-])C(=O)OC(C)C
Dose: dose not given
test	test system	scale	fold change
metabolomics, item: uridine 3'-monophosphate	mouse, EL4 tumour	baseline: vehicle	3.33
item: 2'-deoxyadenosine 3'-monophosphate	mouse, EL4 tumour, tumour	baseline: vehicle	2.21
item: 1-methylhistidine	mouse, EL4 tumour-bearing, EL4 tumour	baseline: vehicle	0.444
metabolomics, item: S-adenosylhomocysteine	mouse, EL4 tumour	baseline: vehicle	0.441
item: cystine	mouse, EL4 tumour-bearing, EL4 tumour	baseline: vehicle	4.74
item: homocysteine	mouse, EL4 tumour-bearing, EL4 tumour	baseline: vehicle	0.178
item: 3'-AMP	mouse, EL4 tumour-bearing, EL4 tumour	baseline: vehicle	3.15
item: cysteine-glutathione disulfide	Mus musculus, EL4 tumour	baseline: over vehicle	4.17
item: S-lactoylglutathione	mouse, EL4 tumour-bearing, EL4 tumour	baseline: vehicle	0.466
item: ADP	mouse, EL4 tumour-bearing, EL4 tumour	baseline: vehicle	2.1

Block 2
SMILES: CCCNC(=O)Nc1ccc(Oc2ncnc3cc(OC)c(OC)cc23)cc1Cl
Observed: enzyme activity
Mode: inhibitor
Concentration: 0.5 µM
Baseline: control
target	remaining activity [%]
Interleukin-1 receptor-associated kinase 4 (IRAK4, Homo sapiens, UniProt Q9NWZ3)	92
Mitogen-activated protein kinase kinase kinase 10 (MAP3K10, Homo sapiens, UniProt Q02779)	103
Serine/threonine-protein kinase WNK2 (WNK2, Homo sapiens, UniProt Q9Y3S1)	100
Cyclin-dependent kinase 9, with cyclin T1 (CDK9, Homo sapiens, UniProt P50750)	98
Casein kinase I isoform alpha (CSNK1A1, Homo sapiens, UniProt P48729)	98.9
Protein kinase C delta type (PRKCD, Homo sapiens, UniProt Q05655)	90.1
cGMP-dependent protein kinase 1 (PRKG1, Homo sapiens, UniProt Q13976)	76.8
Ephrin type-A receptor 5 (EPHA5, Homo sapiens, UniProt P54756)	81.8
Serine/threonine-protein kinase 38 (STK38, Homo sapiens, UniProt Q15208)	87.9
Mitogen-activated protein kinase 12 (MAPK12, Homo sapiens, UniProt P53778)	61.9
RAC-gamma serine/threonine-protein kinase (AKT3, Homo sapiens, UniProt Q9Y243)	88.9
Mast/stem cell growth factor receptor Kit (KIT, Homo sapiens, UniProt P10721)	39.2
Serine/threonine-protein kinase Chk1 (CHEK1, Homo sapiens, UniProt O14757)	77
Tyrosine-protein kinase Lyn (LYN, Homo sapiens, UniProt P07948)	75.5
Casein kinase II subunit alpha (CSNK2A1, Homo sapiens, UniProt P68400)	105
Mitogen-activated protein kinase kinase kinase kinase 2 (MAP4K2, Homo sapiens, UniProt Q12851)	83.1
Serine/threonine-protein kinase Nek4 (NEK4, Homo sapiens, UniProt P51957)	76
Serine/threonine-protein kinase PLK2 (PLK2, Homo sapiens, UniProt Q9NYY3)	104
Tyrosine-protein kinase BTK (BTK, Homo sapiens, UniProt Q06187)	98.6
Leucine-rich repeat serine/threonine-protein kinase 2 (LRRK2, Homo sapiens, UniProt Q5S007)	94.1
MAP kinase-interacting serine/threonine-protein kinase 2 (MKNK2, Homo sapiens, UniProt Q9HBH9)	81.3
Protein kinase C iota type (PRKCI, Homo sapiens, UniProt P41743)	93
Dual specificity mitogen-activated protein kinase kinase 6 (MAP2K6, Homo sapiens, UniProt P52564)	106
Mitogen-activated protein kinase 13 (MAPK13, Homo sapiens, UniProt O15264)	100

Block 3
SMILES: O=C(NCc1ncc(C(F)(F)F)cc1Cl)c1ccc2c(c1)C1(CCS(=O)(=O)CC1)[C@@H](C1CC1)N2S(=O)(=O)c1ccc(F)cc1
Observed: cell-free assay
Method: competition with immobilised ligand
Concentration: 1 µM
target	remaining binding [%]
Activin receptor type-1 (ACVR1, Homo sapiens, UniProt Q04771)	97
Calcium/calmodulin-dependent protein kinase kinase 2 (CAMKK2, Homo sapiens, UniProt Q96RR4)	83
Tyrosine-protein kinase Fes/Fps (FES, Homo sapiens, UniProt P07332)	93
Serine/threonine-protein kinase 25 (STK25, Homo sapiens, UniProt O00506)	99
5'-AMP-activated protein kinase catalytic subunit alpha-1 (PRKAA1, Homo sapiens, UniProt Q13131)	97
Tyrosine-protein kinase receptor TYRO3 (TYRO3, Homo sapiens, UniProt Q06418)	84
Vascular endothelial growth factor receptor 3 (FLT4, Homo sapiens, UniProt P35916)	100
Rhodopsin kinase GRK1 (GRK1, Homo sapiens, UniProt Q15835)	79
Proto-oncogene tyrosine-protein kinase ROS (ROS1, Homo sapiens, UniProt P08922)	100
Tyrosine-protein kinase ABL1, phosphorylated (ABL1, Homo sapiens, UniProt P00519, T315I)	84

Block 4
Structure (SMILES): C=CCc1ccc(O)c(-c2ccc(O)c(CC=C)c2)c1
Observed: chloride current
ANO1 del476-501/F628A: Anoctamin-1 (ANO1, Homo sapiens, UniProt Q5XXA6, del476-501/F628A)
UniProt Q5XXA6, sequence (whole entry, unmodified, looked up): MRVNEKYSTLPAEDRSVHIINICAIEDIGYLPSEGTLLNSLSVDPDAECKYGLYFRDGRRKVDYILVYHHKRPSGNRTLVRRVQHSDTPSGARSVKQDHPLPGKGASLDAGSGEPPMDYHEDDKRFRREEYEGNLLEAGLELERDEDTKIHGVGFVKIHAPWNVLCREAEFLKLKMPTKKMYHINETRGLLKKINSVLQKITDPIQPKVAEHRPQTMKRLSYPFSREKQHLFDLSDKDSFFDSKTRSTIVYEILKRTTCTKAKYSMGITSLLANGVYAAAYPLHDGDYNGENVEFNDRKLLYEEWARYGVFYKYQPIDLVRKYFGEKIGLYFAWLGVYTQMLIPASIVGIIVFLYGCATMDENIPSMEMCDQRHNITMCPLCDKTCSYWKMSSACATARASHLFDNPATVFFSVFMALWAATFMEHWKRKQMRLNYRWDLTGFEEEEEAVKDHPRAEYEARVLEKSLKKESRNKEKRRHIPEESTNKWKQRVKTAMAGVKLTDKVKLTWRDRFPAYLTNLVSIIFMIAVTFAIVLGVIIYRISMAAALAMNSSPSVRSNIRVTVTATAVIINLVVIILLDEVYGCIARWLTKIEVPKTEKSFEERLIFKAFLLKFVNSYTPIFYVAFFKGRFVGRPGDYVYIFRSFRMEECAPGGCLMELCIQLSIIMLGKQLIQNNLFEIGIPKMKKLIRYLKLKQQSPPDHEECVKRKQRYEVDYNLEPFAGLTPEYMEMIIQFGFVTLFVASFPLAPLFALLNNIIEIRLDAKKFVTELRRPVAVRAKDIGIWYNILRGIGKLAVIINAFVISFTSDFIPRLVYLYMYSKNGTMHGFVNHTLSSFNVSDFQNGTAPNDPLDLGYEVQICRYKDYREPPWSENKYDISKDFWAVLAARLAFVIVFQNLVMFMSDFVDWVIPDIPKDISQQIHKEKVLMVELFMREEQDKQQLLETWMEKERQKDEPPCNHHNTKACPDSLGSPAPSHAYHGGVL
ANO1 del476-501/R541A: Anoctamin-1 (ANO1, Homo sapiens, UniProt Q5XXA6, del476-501/R541A)
ANO1 del476-501: Anoctamin-1 (ANO1, Homo sapiens, UniProt Q5XXA6, del476-501)
target	test	conditions	normalized current
ANO1 del476-501/F628A	whole-cell voltage clamp	3 µM, I-V at 60 mV, with: 4 µM Ca2+	0.485
ANO1 del476-501/R541A	inside-out patch clamp	10 µM, membrane voltage 0 mV	-0.0057
Anoctamin-1 (ANO1, Homo sapiens, UniProt Q5XXA6, del476-501/E649A/R541A)	inside-out patch clamp	10 µM, membrane voltage -60 mV	-0.259
ANO1 del476-501/R541A	inhibitor, inside-out patch clamp	10 µM, R515A mutant at -80 mV	-0.529
ANO1 del476-501/F628A	whole-cell voltage clamp	3 µM, I-V at -60 mV, with: 4 µM Ca2+	-0.46
Anoctamin-1 (ANO1, Homo sapiens, UniProt Q5XXA6, del476-501/E659A/K629A)	inside-out patch clamp	10 µM, membrane voltage 100 mV	0.823
ANO1 del476-501	whole-cell voltage clamp	1 µM, wild type, I-V at 80 mV, with: 4 µM Ca2+	0.723
ANO1 del476-501/F628A	whole-cell voltage clamp	3 µM, concentration-response at -20 mV, with: 4 µM Ca2+	-0.177
ANO1 del476-501	whole-cell voltage clamp	3 µM, wild type, concentration-response at -20 mV, with: 4 µM Ca2+	-0.141
ANO1 del476-501/F628A	whole-cell voltage clamp	30 µM, I-V at 100 mV, with: 4 µM Ca2+	0.515

For quick reference, copied from above (block 2):
target	remaining activity [%]
Casein kinase II subunit alpha (CSNK2A1, Homo sapiens, UniProt P68400)	105
Ephrin type-A receptor 5 (EPHA5, Homo sapiens, UniProt P54756)	81.8
Serine/threonine-protein kinase 38 (STK38, Homo sapiens, UniProt Q15208)	87.9
Mitogen-activated protein kinase kinase kinase 10 (MAP3K10, Homo sapiens, UniProt Q02779)	103
MAP kinase-interacting serine/threonine-protein kinase 2 (MKNK2, Homo sapiens, UniProt Q9HBH9)	81.3
Serine/threonine-protein kinase WNK2 (WNK2, Homo sapiens, UniProt Q9Y3S1)	100
